# Results collected from several papers.
# Every numbered part comes from another study and shows a few of its results, in no order. Substitutions count along the parent as printed.
# Sequence of UniProt Q14680 (whole entry, looked up): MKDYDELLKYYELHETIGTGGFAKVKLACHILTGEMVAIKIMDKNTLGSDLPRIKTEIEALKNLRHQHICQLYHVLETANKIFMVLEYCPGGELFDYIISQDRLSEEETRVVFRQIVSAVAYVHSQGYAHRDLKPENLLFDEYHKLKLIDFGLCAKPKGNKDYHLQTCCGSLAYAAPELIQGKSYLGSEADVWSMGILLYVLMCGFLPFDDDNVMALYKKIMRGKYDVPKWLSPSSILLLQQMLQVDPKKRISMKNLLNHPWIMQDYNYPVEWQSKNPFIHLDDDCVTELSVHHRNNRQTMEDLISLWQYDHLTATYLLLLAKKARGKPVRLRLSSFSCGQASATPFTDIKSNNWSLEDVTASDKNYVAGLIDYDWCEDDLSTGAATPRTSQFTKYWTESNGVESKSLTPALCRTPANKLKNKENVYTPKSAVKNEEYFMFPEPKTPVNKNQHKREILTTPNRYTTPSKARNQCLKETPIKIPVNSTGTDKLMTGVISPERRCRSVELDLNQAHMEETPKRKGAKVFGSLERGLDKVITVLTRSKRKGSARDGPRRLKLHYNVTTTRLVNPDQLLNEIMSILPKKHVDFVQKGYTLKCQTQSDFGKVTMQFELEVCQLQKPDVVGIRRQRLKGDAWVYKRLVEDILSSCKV

# Set 1
# Target: CEBPA, bZIP domain (human)
# Technique: DHFR protein complementation
# Matrix: yeast
# Setting: single substitutions, most at no-binding floor
# Reference: wild-type JUN-FOS pair
# Reading: higher = stronger binding
# Starting sequence: JUN, bZIP domain (human); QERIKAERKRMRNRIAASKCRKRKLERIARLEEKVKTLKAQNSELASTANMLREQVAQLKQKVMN; partner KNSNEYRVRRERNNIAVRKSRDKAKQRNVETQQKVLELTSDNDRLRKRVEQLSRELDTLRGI
Change,binding fitness
M51P,-1.48 natural log
M51V,-1.51 natural log
L31M,-1.14 natural log
A29D,-1.35 natural log
N42R,-1.43 natural log
K36T,-1.47 natural log
S47R,-1.33 natural log
I28W,-1.42 natural log

# Set 2
# Target: Centromere-binding protein 1, full length, His-tagged (CBF1, Saccharomyces cerevisiae, UniProt P17106, residues 1-351)
# Sequence of UniProt P17106 (whole entry, looked up): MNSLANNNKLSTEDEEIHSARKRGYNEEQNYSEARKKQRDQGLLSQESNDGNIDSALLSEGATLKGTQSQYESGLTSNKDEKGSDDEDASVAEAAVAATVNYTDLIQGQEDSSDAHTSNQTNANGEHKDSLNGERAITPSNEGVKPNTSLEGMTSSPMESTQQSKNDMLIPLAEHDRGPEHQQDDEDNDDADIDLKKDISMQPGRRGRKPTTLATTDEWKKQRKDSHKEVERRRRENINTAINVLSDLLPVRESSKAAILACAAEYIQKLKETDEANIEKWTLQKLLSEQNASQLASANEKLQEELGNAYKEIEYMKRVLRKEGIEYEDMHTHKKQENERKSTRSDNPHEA
# Technique: competition protein-binding microarray
# Form: double-stranded DNA, one strand shown
# Matrix: in vitro
# Tested at: 2 µM
# Setting: whole 60-bp probe, lowest competitor level
# Added: Pho4 competitor, 0.05 µM
# Reading: higher = stronger binding
# All sequences stand within: … GTCTTGATTCGCTTGACGCTGCTG
Oligonucleotide,fluorescence intensity [a.u.]
TCGAGAACTTAGGGTAGCGTGCCAGAAAATTTGCAT,117
TACAGGTCAATTCAACACGTGGTCGTTCTTCACCAG,1750
ACCTTGAGCTCGAAAAATGTGACGGATACTTTTTCC,87.9
AAATTACTAAGTTGAATTGTGGGTGACGCCGTATGA,65
AAGATTACACTCGCGAACGTGCGATCGGGATGATAC,85
AAGCCCCAAAACGGCCACGTGATGGACTAGTTGCGC,3020
AACAGTGATATTCGTCACGTGACTCGGATAAAACTC,37800
AAAGCGGTAATTTGATACGTGGGTGCAGATATCTAT,60.1

# Set 3
# Target: Eukaryotic initiation factor 4A-I (EIF4A1, Homo sapiens, UniProt P60842, residues 1-406, full length assumed)
# Sequence of UniProt P60842 (whole entry, looked up): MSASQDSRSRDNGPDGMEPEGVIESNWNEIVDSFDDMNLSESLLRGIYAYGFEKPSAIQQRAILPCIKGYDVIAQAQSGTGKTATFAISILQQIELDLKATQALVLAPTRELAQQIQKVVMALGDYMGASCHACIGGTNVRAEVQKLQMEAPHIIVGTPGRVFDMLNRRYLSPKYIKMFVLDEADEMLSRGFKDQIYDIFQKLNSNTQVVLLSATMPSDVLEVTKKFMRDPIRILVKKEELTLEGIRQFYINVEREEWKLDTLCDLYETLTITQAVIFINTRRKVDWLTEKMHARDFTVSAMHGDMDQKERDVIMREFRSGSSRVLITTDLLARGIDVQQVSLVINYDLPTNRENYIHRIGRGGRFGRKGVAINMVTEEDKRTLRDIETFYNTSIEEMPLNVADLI
# Technique: RNA Bind-n-Seq
# Form: RNA
# Matrix: in vitro
# Tested at: 90 pmol
# Setting: 4-mer, random 30-nt RNA, single round
# Added: 3 µM DMDA-PatA, 2 mM ADP, 2 mM phosphate
# Reference: input library
# Reading: higher = stronger binding
Oligonucleotide,4-mer enrichment
UAUG,1.12 fold
ACUG,0.705 fold
GGCU,0.63 fold
GCGC,1.39 fold
UUGU,1.15 fold
CGAG,1.23 fold
CGCA,0.806 fold
GACG,0.762 fold

# Single results of other studies
Structure (SMILES),target,read-out,mode,tested at,reference,quantity,value
c1ccc(-c2[nH]ncc2-c2ccnc3ccccc23)nc1,"Maternal embryonic leucine zipper kinase (MELK, Homo sapiens, UniProt Q14680)",enzyme activity,inhibitor,0.5 µM,control,remaining activity,93.3%

# For quick reference, copied from above (set 1):
Change,binding fitness
L31M,-1.14 natural log
A29D,-1.35 natural log
